{"data": "Measurements from different studies", "note": "Protocols differ between the studies behind these lines. ± gives the spread as reported."}
{"Compound": "CCCCCCCCCC1CC2CCCC3CC(CCCCCCCCC)NC(=N1)N23 (stereo not shown)", "organism": "Candida glabrata", "assay": "fungal growth", "test system": "ATCC 90030", "IC50": "3.75 µM"}
{"Compound": "C/C(=C\\c1ccco1)[N+](=O)[O-]", "organism": "Leishmania braziliensis", "assay": "parasite growth", "setting": "72 h, promastigote", "IC50": "2.3 µM"}
{"Compound": "Cc1ncc(COP(=O)(O)O)c(C=NNC(=N)NO)c1O", "organism": "Human mastadenovirus C", "assay": "viral replication, plaque reduction", "test system": "A549, Ad5 McEwen", "setting": "6 days", "IC50": "inactive"}
{"Compound": "COc1cc(/C=C(\\C#N)C(=O)c2ccc(O)c(O)c2)cc(I)c1O", "organism": "Strongylocentrotus purpuratus", "assay": "Ca2+ release, antagonist", "test system": "sea urchin egg homogenate", "setting": "with: cADPR 300 nM", "IC50": "3.84 ± 0.39 µM"}
{"Compound": "CCCCCCCCCC1CC2CCC3CC(CCCCCCCCC)NC(=N1)N23 (stereo not shown)", "organism": "Candida glabrata", "assay": "fungal growth", "test system": "ATCC 90030", "IC50": "2.18 µM"}
{"Compound": "O=[N+]([O-])/C=C/c1ccco1", "organism": "Leishmania braziliensis", "assay": "parasite growth", "setting": "72 h, promastigote", "IC50": "1.4 µM"}
{"Compound": "CNC(=O)c1ccc(-c2cnn3ccc(C(=O)N(C)c4ccc(C#N)cn4)cc23)cc1", "organism": "Cryptosporidium parvum", "assay": "parasite growth, imaging", "test system": "HCT-8", "setting": "intracellular", "IC50": "0.232 µM"}
{"Compound": "CCN(CC)CC#CCNc1ccnc2cc(Cl)ccc12", "organism": "Plasmodium falciparum", "assay": "parasite growth, SYBR green I", "test system": "3D7", "setting": "20% human serum", "IC50": "0.173 to 0.352 µM"}
{"Compound": "CNC(=O)c1ccc(-c2cnn3ccc(C(=O)Nc4ccc(C#N)cn4)cc23)cc1", "organism": "Cryptosporidium parvum", "assay": "parasite growth, imaging", "test system": "HCT-8", "setting": "intracellular", "IC50": "> 20 µM"}
{"Compound": "NNc1n[nH]c(=O)c2ccccc12", "organism": "Leishmania braziliensis", "assay": "parasite growth, MTT", "setting": "promastigote", "IC50": "> 25 µM"}
{"Compound": "COC1C=COC2(C)Oc3c(C)c(O)c4c(c3C2=O)C2=NC3(CCN(CC(C)C)CC3)NC2=C(NC(=O)C(C)=CC=CC(C)C(O)C(C)C(O)C(C)C(OC(=O)Nc2cscn2)C1C)C4=O (stereo not shown)", "organism": "Mycobacteroides abscessus", "test system": "ATCC 19977", "setting": "CAMHB", "IC50": "0.013 µM"}
{"Compound": "CNC(=O)c1ccc(-c2cnn3ccc(C(=O)N(c4ccc(C#N)cn4)C(C)(C)C)cc23)cc1", "organism": "Cryptosporidium parvum", "assay": "parasite growth, imaging", "test system": "HCT-8", "setting": "intracellular", "IC50": "1.03 µM"}
{"Compound": "NNc1nnc(NN)c2ccccc12", "organism": "Leishmania braziliensis", "assay": "parasite growth, MTT", "setting": "promastigote", "IC50": "> 25 µM"}
{"Compound": "N#C/C(=C\\c1ccc(O)c(O)c1)C(=O)c1ccc(O)c(O)c1", "organism": "Strongylocentrotus purpuratus", "assay": "Ca2+ release, antagonist", "test system": "sea urchin egg homogenate", "setting": "with: cADPR 300 nM", "IC50": "1.1 ± 0.16 µM"}
{"Compound": "COC1C=COC2(C)Oc3c(C)c(O)c4c(c3C2=O)C2=NC3(CCN(CC(C)C)CC3)NC2=C(NC(=O)C(C)=CC=CC(C)C(O)C(C)C(O)C(C)C(OC(=O)c2cccnc2)C1C)C4=O (stereo not shown)", "organism": "Mycobacteroides abscessus", "test system": "ATCC 19977", "setting": "50% human serum", "IC50": "0.15 µM"}
{"Compound": "Cc1cc(N2CCC(C#N)(C3(C)CC3)C2=O)cc(C(=O)NCc2cc(F)cc(-c3cnn(C)c3)c2)n1 (racemic)", "organism": "Plasmodium falciparum", "assay": "parasite growth, [3H]hypoxanthine incorporation", "test system": "7G8", "setting": "72 h", "IC50": "0.018 µM"}
{"note": "For quick reference, copied from above:"}
{"Compound": "CCN(CC)CC#CCNc1ccnc2cc(Cl)ccc12", "organism": "Plasmodium falciparum", "assay": "parasite growth, SYBR green I", "test system": "3D7", "setting": "20% human serum", "IC50": "0.173 to 0.352 µM"}
{"Compound": "NNc1nnc(NN)c2ccccc12", "organism": "Leishmania braziliensis", "assay": "parasite growth, MTT", "setting": "promastigote", "IC50": "> 25 µM"}
{"Compound": "CNC(=O)c1ccc(-c2cnn3ccc(C(=O)N(c4ccc(C#N)cn4)C(C)(C)C)cc23)cc1", "organism": "Cryptosporidium parvum", "assay": "parasite growth, imaging", "test system": "HCT-8", "setting": "intracellular", "IC50": "1.03 µM"}
